Measured values pooled from the literature.
Parts stem from different laboratories: compare values within a part only.

Block 1
Target: Histone acetyltransferase KAT6A, winged helix 2, GST fusion (KAT6A, Homo sapiens, UniProt Q92794, residues 85-181)
Method: protein binding microarray
Form: double-stranded DNA, one strand shown
Sample: in vitro
Tested at: not given
Notes: 8-mer, flanks averaged, mean of 2 arrays, mostly near background
Baseline: not given
Direction: higher = stronger binding
Measurement: E-score
Target sequence (chain): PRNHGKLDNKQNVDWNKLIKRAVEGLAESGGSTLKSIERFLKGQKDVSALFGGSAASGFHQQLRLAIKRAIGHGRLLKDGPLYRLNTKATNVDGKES
CGTGCGGC: 0.151
ACGAAAGG: 0.0181
GGCTCGAA: 0.125
ACTATATA: -0.109
GAAGAGTC: -0.154
AGGTTTGC: 0.0143
CTCCAGAA: 0.0965
GACCATGA: -0.0365
GGAGTGTA: -0.214
CGACTATC: -0.0399
AAGAGTTG: -0.0352
CCCTGCTA: -0.0213
AAGGACCA: -0.0322
AGGTCCTA: -0.0812
TTAGGGAA: -0.106
CAGTGTGG: -0.09
AGGCGCTC: 0.116

Block 2
Target: Sal-like protein 4, full length isoform B (SALL4, Homo sapiens, UniProt Q9UJQ4-2, residues 1-616)
Method: universal PBM
Form: double-stranded DNA, one strand shown
Sample: in vitro
Tested at: not given
Notes: 8-mer, flanks averaged, mean of replicates
Direction: higher = stronger binding
Measurement: E-score
Residues (chain): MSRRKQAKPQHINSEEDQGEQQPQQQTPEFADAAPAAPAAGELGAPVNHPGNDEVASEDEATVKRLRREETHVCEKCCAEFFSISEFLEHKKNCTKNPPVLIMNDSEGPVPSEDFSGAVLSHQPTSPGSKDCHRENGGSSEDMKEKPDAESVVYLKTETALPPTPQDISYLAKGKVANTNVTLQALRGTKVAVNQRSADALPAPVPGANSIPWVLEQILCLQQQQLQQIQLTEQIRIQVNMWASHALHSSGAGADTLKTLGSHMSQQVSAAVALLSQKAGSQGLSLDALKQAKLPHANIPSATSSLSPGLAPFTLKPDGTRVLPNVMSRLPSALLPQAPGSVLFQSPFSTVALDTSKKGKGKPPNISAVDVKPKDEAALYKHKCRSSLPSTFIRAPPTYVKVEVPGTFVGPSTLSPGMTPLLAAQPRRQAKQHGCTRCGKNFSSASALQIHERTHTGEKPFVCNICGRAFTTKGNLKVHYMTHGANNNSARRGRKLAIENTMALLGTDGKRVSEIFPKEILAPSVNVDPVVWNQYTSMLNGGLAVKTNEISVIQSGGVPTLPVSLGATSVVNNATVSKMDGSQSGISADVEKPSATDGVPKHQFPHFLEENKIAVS
CAGGTGCC: -0.265
GCCCGAGA: -0.222
ATGATAGG: 0.194
GTGGACAA: 0.0866
CTCGGACA: -0.0639
ACTCGAGT: 0.0459
ATGTGTAC: 0.254
AATGACCC: -0.159
AGGCTCTG: -0.3
CCATTGCC: -0.121
CTGCCCAA: -0.225
ATCCGCAT: -0.0458
TATGAGGA: 0.237
ATCCAAGG: -0.139
AGGATGTG: -0.00707
AAGTGTCT: 0.0935
GTGTGCGA: -0.159
ATTATCCG: 0.19
GGGTAAGA: -0.045
CAAAATTG: 0.205
AAACGCCT: -0.0732
GCTGGGCA: -0.179
GTACCCTA: 0.0465

Block 3
Target: RING finger protein unkempt homolog, zinc fingers 1-6, GST-SBP tag (UNK, Homo sapiens, UniProt Q9C0B0, residues 30-357)
Method: RNA Bind-n-Seq
Form: RNA
Sample: in vitro
Tested at: not given
Notes: RNA with constant flanks, human and mouse sites, ends assumed
Baseline: input RNA pool
Direction: higher = stronger binding
Measurement: bound/input enrichment
Construct (chain): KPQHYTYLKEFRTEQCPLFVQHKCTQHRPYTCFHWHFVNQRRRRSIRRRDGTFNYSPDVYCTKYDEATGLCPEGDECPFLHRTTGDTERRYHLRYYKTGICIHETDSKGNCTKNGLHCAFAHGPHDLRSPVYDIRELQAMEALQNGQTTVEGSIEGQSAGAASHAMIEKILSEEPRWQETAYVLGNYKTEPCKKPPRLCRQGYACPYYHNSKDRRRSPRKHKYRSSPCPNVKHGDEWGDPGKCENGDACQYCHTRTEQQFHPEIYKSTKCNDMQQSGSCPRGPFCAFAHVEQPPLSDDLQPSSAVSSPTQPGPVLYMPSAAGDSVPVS
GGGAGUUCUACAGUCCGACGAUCACUGAAGAAGAAAAGCAACAGAUUUUACACUCAGAAGAAUUUUUAAGUUUCUUUGACCAUUCUACGAGAAUUGUAGAAAGAGCCCUUUCUGAGCAGAUUAACAUCUUCUUUGACUACAGUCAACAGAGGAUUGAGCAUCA: 0.152 ratio
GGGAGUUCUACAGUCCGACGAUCCACAUCAAAUAUGCUGUCACCACUGGGGACCAUGGGAUUAUCCGAACUCUGGAUUUACCCAUCUAUGUCACCAGAGUGAAGGGCAAUAAUGUAUACUGCCUAGACAGAGAGUGUCGUCCUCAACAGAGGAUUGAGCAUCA: 0.088 ratio
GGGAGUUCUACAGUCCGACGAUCCGGUGUUGGACAUAUGAAACAUCUCUGCUGGUAGAAGAGGCCAUUAGUGAGGAACUUCCCUAUAGUGAAUACUUCGAGUACUUUGCCCCAGAUUUCACACUCCAUCCAGAUGUCAGCACCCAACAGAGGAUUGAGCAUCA: 0.495 ratio
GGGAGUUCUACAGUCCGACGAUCACAUUUUCCUUCUGAUAUAUUAUACUUGUAAUGGGCGACAUGGCAAACAACUCAGUUGCUUACAGUGGUGUGAAAAACUCUUUGAAGGAAGCUAAUCAUGAUGGAGACUUUGGAAUUACGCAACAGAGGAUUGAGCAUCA: 0.153 ratio
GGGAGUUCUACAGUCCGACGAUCUUCCGUCAGCGCUUCCUCUACUCCCUGUAUCGACACACACACUGGGUACGCUGCGCCAAAUUUUCACCUGACGGAAGGUUGAUCGUGUCAUGUAGUGAGGAUAAAACUAUUAAAAUUUGGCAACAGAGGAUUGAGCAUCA: 0.511 ratio
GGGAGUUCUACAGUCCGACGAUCUUCUUCUUCUUUGACUCAGUUCAAGUAGUUUUUACAAUAUGUACAGCAGUUCUUGCAACGAUAGCUUUUGCUUUUCUUCUCCUCCCGAUGUGCCAGUAUUUAACAAGACCCUGCUCACCUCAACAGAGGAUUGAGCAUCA: 12.4 ratio
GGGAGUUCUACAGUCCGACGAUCUUAGGAAAACAUCAGCUUAAUGAACUUGGGAGUGAAUCUGCUAAAAUUAAAGCCAUGGGUAUAAUGGACAAGCUUUCAACUGACAAAACUGUGAAAGUCCUAAAUAUAUUGGAGAAGAAUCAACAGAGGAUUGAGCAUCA: 0.285 ratio
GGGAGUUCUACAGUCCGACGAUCUAAUUUUGGUCUGCUUAUUUUUAGAUAAAAUUGAAAGGAAUUGUAUAAAUCAAUUAACAUAUUAGCUGAGUUGUCCAACACAUGGUAUAAACGAAUUACAACAGUAAACUAUUACACAUUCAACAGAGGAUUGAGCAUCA: 6.39 ratio
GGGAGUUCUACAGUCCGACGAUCCAGACCUACAUCAACGGCCUCCUCACUGGGUACAGCUCCACCCUGUGGAUCGGCUUGAAUGACUUGGACACGAGCGGAGGCUGGCAGUGGUCGGACAACUCGCCCCUCAAGUACCUCAACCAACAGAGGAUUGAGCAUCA: 0.0533 ratio
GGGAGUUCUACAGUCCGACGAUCAUAAAUUUGUAAAUCCUAAUUCAAAGAUGGCUCAUGUGUGAGGGCAUUGAGUUUGAUUUGUUUUCCCUUUGGUCUGGGUUGUGUGGCUUUUGGGGGAUGCGUGUGAGGGGGCUAUGUGUUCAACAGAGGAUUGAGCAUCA: 1.05 ratio
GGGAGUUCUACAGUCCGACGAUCACUGCUCCAUCGAUCCCUUCACAUUUGUCUCCUGGUUUACGAGAUGUGGCUCUUCGUUGUUUAGAACUUCAACCUCAGGACAGACCUCCAUCAAGAGAGCUACUGAAGCAUCCAGUCUUUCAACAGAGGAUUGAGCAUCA: 0.155 ratio

Block 4
Target: RNA binding protein fox-1 homolog 2, RRM domain, GST-SBP tag (RBFOX2, Homo sapiens, UniProt O43251-10, residues 100-194)
Method: RNA Bind-n-Seq
Form: RNA
Sample: in vitro
Tested at: 365 nM
Notes: natural RNA segment, single round, ends assumed
Baseline: no-protein control
Direction: higher = stronger binding
Measurement: RBNS enrichment (R)
Construct (chain): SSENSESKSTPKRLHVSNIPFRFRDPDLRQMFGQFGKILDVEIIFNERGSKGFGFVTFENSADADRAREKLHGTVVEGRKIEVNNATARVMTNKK
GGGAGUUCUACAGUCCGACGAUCAGCCGCCUGCACAGCCUGGAACCUGCAUUGAUACUGGGGCAGGAAUUCGCCCUCACAGAGGGCGUGUGGUCCACGAAGCUGUCUACAGGGGAGGCUGCAGGCAGGAAGCAUGGAAUUCUCGGGUGCCAA: 1.03
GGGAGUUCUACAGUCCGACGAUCAAACAGGCCACGACUUGUCACUCAGCACUAACCCCCAGUUCUUGAACAGCCUCCUCCAGCCCUGCUUUAGGAUGACACAAUGAAUAACACCUAGGCAUAGAAACCAGUCUUGGAAUUCUCGGGUGCCAA: 0.456
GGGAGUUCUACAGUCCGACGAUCUUGCUGGCAGUGCUAGCCAGGAAACAGAGUGACCAAGGGACAAGAAGGGACUUGCCUAAAGCCACCCAGCAACUCAGCAGCAGAACCAAGAUGGGCCCCAGGCUCCUCCAUGGAAUUCUCGGGUGCCAA: 0.448
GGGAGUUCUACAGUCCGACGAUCGAUAGCAGAGGAGAGGGAUGAGCCCUGCGUUUAUUUCCCUUCUGCUCGUCCUUUUCCAGGACACAAUGGAACUGUCGGAAGAAGAGUUUCUAGAAAGUUAGGAUUGGGCAUGGAAUUCUCGGGUGCCAA: 1.05
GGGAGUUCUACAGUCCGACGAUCUGAGAUAACAUUUACAUUGUCAACCUUUAUUGACUUUGUUUUUACAAUAAAAAAUAUUUUACAACUUACUUUCUGUUCUCUGUAUAUUGUGACUUGAGGAUUUACCCCCUUGGAAUUCUCGGGUGCCAA: 0.414
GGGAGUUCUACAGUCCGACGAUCAGAAAUCAAAUUAGUGUUUAAACCCAUUUGCAUAUUGACUUGUCAGUACCUUUAACUCAAUUUAAUAUAACAAGAAAUCGUAAAAUACUUAUAACCUAUCUUAGAGAAAUUGGAAUUCUCGGGUGCCAA: 0.466
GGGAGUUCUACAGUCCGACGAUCGACUGGGACCAGGCACCAGGCAGGGUCUAGAAGGCUGUGGUGAGGGAAGACGCCUUUCUCCUCCAACCCAACCUCAUCCUCCUUCUUCAGGGACUUGGGUGGGUACUUGGUGGAAUUCUCGGGUGCCAA: 0.293
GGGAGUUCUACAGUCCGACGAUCUAGACAUUGUUGGAGAAGUGGGCUGCCUUCCCCAAGUGGGGCACUGCUUAAGCACUUAUUCAGUGGAGAACACAGGUGAAAAGCAACUCAGGAUGAGGGUGGUGGAGAGGUGGAAUUCUCGGGUGCCAA: 0.679
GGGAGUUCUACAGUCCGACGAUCCAGUGGCCAUUUAUUAGCAUCAUAUUUAUUUGUAUUUUCUCAACAGAUGUUAAGGUACAACUGUGUUUUUCUCGAUUAUCUAAAAACCAUAGUACUUAAAUUGAACAGUUUGGAAUUCUCGGGUGCCAA: 0.669
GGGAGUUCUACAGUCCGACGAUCCUUCAGAGAUGGAUGAAAGUUUGGAGUGUGCAGGUGCGCAAUCAUUACCAGCUGAGAAGCUCUCCGAAACCGGUGGCUACGGGACUCUUCAGCAUGGAGAGGACACCGUGUGGAAUUCUCGGGUGCCAA: 0.424
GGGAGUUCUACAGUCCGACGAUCACGGGUCUGUAGUUGAGGACGAGAUUGAGAGCUGUUAAUCCACCAAAUGCAAUGGCUCAGAACAAUUAAGCACUGCCUUUCGUCUUUCUUUGUAACUCACUUGGUAAAAGUGGAAUUCUCGGGUGCCAA: 0.419
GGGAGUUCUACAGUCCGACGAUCCCACACACAGAUCACUCCUCCCAGGGCUGCUGGCACACACUGAUUGUGGGGAGUUCAAGAGGCCUUUUCCCCUUGAGGGUGUGGCUGUCCCCCUUUCAGGCGUGUGGCGUUGGAAUUCUCGGGUGCCAA: 0.392

Excerpt of the above (block 1):
ACTATATA: -0.109
CGTGCGGC: 0.151
AAGGACCA: -0.0322
AGGTTTGC: 0.0143
